Results gathered from unrelated publications.
A part holds a random share of what one study measured.
Chain of UniProt P10721 (whole entry, unmodified, looked up): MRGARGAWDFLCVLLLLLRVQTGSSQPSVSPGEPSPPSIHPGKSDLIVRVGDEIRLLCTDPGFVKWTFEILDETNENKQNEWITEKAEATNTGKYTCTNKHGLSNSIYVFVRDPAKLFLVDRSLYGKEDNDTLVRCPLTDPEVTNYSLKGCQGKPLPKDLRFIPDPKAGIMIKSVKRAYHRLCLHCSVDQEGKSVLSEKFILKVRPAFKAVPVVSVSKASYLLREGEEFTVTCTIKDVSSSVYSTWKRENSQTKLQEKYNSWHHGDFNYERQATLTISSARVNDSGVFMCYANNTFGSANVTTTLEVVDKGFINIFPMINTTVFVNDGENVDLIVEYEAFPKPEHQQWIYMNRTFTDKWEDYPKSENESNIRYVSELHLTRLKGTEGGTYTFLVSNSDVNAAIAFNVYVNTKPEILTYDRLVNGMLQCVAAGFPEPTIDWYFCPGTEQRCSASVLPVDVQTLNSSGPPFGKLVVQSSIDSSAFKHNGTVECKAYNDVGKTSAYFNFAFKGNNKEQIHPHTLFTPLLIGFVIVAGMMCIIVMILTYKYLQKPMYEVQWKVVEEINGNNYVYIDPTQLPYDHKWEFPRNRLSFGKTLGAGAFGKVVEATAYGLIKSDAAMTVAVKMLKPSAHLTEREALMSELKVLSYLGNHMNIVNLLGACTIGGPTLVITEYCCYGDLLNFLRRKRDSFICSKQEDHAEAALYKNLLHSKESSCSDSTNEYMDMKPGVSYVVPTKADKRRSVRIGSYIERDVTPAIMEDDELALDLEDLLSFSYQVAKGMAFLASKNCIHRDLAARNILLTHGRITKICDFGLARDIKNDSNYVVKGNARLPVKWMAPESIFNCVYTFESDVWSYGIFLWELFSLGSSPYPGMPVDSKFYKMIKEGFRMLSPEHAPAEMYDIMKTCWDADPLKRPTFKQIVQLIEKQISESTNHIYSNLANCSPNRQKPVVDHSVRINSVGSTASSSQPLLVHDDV
Chain of UniProt Q99558 (whole entry, looked up): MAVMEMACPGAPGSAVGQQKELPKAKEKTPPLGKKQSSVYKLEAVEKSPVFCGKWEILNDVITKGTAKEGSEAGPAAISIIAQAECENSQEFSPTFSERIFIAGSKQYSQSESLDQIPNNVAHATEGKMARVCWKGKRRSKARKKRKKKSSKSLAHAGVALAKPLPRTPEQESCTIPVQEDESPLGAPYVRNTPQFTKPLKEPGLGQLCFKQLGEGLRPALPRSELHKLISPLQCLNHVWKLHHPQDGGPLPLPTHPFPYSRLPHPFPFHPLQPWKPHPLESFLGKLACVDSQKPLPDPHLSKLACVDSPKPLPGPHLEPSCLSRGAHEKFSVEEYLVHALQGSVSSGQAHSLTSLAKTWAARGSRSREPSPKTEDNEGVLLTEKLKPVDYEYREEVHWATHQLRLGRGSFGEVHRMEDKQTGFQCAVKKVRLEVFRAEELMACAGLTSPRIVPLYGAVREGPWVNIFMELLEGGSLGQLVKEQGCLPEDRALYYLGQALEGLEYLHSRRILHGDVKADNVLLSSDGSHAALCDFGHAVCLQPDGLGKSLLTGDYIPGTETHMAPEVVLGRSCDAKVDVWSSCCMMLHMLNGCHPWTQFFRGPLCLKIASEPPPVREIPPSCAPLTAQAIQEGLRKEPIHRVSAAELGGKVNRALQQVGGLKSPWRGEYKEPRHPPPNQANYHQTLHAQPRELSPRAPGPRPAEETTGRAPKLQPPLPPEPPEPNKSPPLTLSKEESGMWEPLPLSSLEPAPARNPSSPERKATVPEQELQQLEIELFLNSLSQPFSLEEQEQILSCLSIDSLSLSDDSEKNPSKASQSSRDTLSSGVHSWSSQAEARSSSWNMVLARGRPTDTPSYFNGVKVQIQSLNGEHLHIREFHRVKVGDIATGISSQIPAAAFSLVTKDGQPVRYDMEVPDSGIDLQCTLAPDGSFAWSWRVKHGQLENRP
Chain of UniProt P78362 (whole entry, looked up): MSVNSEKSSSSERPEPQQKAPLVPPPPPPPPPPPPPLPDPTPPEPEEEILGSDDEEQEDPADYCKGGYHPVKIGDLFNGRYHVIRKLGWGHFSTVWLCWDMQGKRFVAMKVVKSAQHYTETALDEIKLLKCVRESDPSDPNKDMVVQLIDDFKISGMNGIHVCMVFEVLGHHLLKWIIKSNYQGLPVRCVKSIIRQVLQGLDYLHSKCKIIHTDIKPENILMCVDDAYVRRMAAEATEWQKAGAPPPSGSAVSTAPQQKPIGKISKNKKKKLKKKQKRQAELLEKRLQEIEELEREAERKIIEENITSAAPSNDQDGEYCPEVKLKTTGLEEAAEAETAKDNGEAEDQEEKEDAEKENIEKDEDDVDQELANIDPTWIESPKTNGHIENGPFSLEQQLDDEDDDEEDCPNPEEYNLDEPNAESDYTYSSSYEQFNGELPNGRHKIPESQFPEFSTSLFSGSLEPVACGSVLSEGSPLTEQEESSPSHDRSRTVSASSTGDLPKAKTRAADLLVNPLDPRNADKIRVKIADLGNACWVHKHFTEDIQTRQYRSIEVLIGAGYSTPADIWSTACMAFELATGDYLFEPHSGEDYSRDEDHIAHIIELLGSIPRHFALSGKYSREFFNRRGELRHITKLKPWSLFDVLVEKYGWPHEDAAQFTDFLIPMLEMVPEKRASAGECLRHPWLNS
Chain of UniProt P48729 (whole entry, looked up): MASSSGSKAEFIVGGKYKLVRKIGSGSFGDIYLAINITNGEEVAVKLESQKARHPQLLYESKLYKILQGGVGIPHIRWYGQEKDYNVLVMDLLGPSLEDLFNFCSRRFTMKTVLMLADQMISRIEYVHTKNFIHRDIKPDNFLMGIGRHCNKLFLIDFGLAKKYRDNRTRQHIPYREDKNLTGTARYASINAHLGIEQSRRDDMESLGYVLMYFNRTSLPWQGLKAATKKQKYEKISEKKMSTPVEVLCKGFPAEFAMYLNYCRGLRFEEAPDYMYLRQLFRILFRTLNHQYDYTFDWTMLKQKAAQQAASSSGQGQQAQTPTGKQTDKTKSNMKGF
Chain of UniProt P42685 (whole entry, looked up): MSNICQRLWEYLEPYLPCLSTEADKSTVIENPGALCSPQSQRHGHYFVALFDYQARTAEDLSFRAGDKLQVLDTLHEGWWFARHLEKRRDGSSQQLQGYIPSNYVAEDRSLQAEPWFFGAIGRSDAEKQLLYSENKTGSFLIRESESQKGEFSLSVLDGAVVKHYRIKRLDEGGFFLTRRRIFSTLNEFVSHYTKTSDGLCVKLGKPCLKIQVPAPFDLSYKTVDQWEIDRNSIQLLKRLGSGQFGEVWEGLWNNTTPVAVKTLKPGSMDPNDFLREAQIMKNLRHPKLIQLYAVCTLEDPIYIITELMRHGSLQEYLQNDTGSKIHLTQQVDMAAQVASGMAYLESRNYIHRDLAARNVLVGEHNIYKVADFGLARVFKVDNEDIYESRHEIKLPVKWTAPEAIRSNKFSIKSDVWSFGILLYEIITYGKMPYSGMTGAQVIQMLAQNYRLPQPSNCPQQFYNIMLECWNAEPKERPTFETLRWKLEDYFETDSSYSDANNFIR
Chain of UniProt P78368 (whole entry, looked up): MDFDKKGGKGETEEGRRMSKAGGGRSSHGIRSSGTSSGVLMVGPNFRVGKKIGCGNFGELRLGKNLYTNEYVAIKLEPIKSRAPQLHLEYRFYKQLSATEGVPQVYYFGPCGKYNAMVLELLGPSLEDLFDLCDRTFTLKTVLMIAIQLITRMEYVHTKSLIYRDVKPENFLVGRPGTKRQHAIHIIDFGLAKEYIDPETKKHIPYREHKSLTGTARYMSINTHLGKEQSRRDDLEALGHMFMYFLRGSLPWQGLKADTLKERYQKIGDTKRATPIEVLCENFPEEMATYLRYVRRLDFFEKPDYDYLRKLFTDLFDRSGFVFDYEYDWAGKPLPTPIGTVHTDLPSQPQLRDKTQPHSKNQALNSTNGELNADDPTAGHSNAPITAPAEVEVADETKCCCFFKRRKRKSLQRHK
Chain of UniProt Q9HAZ1 (whole entry, looked up): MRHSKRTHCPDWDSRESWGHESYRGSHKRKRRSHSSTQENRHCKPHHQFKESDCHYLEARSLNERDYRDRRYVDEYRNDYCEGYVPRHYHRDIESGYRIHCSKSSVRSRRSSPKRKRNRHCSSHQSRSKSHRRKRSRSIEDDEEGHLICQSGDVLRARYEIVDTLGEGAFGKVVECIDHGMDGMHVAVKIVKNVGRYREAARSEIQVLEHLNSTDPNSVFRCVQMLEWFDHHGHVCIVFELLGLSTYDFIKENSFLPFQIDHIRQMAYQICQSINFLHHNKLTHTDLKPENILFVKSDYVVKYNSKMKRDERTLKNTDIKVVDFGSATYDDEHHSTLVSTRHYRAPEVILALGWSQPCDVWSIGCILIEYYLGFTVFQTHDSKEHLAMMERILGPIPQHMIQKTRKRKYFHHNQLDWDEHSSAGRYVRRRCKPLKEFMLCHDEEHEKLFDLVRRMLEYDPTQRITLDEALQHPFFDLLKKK

Sample 1
Target: Interferon regulatory factor 5, full length, phosphomimetic (IRF5, Homo sapiens, UniProt Q13568-2, residues 1-514, K96S/S451D/S453D/S456D/S462D)
Method: protein-binding microarray
Molecule type: double-stranded DNA, one strand shown
Medium: in vitro
Tested at: 250 nM
Setting: 60-bp whole probe
Together with: salmon DNA 0.4 mg/ml
Baseline: random background probes
Direction: higher = stronger binding
All sequences stand within: GCCTAGCAC … GTGCTAGGTCTTGATTCGCTTGACGCTGCTG
Strand	log fluorescence [z-score]
GACGGTTCCCTTTTCCAGAC	0.345
TTTTTTTTATTTATAAATTA	1.6
GACGGTTCCGGGTTCGGGAC	0.0935
GAACCTTGGCCTCTAGGTTT	-0.445
TTAGATCTCAGACTGGTTTA	-0.138
GACGATTTCAAACTGGAGAC	-0.0833
GACGGTTCCCTTTTCCTGTC	0.773
TAAGGTTTCCTTCTCCTTTA	0.848

Sample 2
SMILES: COc1cc(-c2cn(C3CCc4ccccc4N(CC(F)(F)F)C3=O)nn2)ccc1-n1ccc(C)n1 (stereo not shown)
Read-out: cell-free assay
Method: competition with immobilised ligand
Tested at: 1 µM
target	remaining binding
Hepatocyte growth factor receptor (MET, Homo sapiens, UniProt P08581)	100%
Dual specificity mitogen-activated protein kinase kinase 7 (MAP2K7, Homo sapiens, UniProt O14733)	100%
Receptor tyrosine-protein kinase erbB-3 (ERBB3, Homo sapiens, UniProt P21860)	77%
Epithelial discoidin domain-containing receptor 1 (DDR1, Homo sapiens, UniProt Q08345)	100%
Non-receptor tyrosine-protein kinase TNK1 (TNK1, Homo sapiens, UniProt Q13470)	100%
Serine/threonine-protein kinase PAK 2 (PAK2, Homo sapiens, UniProt Q13177)	100%
Tyrosine-protein kinase ABL1, non-phosphorylated (ABL1, Homo sapiens, UniProt P00519)	78%
Mast/stem cell growth factor receptor Kit (KIT, Homo sapiens, UniProt P10721, T670I/V559D)	92%
Epidermal growth factor receptor (EGFR, Homo sapiens, UniProt P00533, del752-759)	100%
SRSF protein kinase 2 (SRPK2, Homo sapiens, UniProt P78362)	81%
Tyrosine-protein kinase ABL1, phosphorylated (ABL1, Homo sapiens, UniProt P00519, Q252H)	71%
RAC-alpha serine/threonine-protein kinase (AKT1, Homo sapiens, UniProt P31749)	97%
Casein kinase I isoform alpha (CSNK1A1, Homo sapiens, UniProt P48729)	98%
Protein kinase C delta type (PRKCD, Homo sapiens, UniProt Q05655)	98%
Mitogen-activated protein kinase kinase kinase 14 (MAP3K14, Homo sapiens, UniProt Q99558)	69%
Dual specificity protein kinase CLK4 (CLK4, Homo sapiens, UniProt Q9HAZ1)	80%
Activated CDC42 kinase 1 (TNK2, Homo sapiens, UniProt Q07912)	100%
Mast/stem cell growth factor receptor Kit (KIT, Homo sapiens, UniProt P10721, D816V)	100%
Dual specificity tyrosine-phosphorylation-regulated kinase 1A (DYRK1A, Homo sapiens, UniProt Q13627)	83%
Epidermal growth factor receptor (EGFR, Homo sapiens, UniProt P00533, G719S)	100%

Sample 3
Target: Centromere-binding protein 1, full length, His-tagged (CBF1, Saccharomyces cerevisiae, UniProt P17106, residues 1-351)
Chain of UniProt P17106 (whole entry, looked up): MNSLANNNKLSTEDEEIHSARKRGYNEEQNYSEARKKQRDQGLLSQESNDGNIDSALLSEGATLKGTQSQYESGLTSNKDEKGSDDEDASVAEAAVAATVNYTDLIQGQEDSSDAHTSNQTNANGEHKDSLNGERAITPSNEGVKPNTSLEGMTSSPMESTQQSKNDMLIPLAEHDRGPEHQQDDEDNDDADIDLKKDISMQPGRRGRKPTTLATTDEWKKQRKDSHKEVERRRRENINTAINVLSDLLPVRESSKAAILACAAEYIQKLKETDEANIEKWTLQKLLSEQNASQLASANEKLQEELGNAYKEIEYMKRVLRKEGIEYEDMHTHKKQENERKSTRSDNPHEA
Method: competition protein-binding microarray
Molecule type: double-stranded DNA, one strand shown
Medium: in vitro
Tested at: 2 µM
Setting: whole 60-bp probe, lowest competitor level
Together with: Pho4 competitor, 0.05 µM
Direction: higher = stronger binding
All sequences stand within: … GTCTTGATTCGCTTGACGCTGCTG
Strand	fluorescence intensity
TTAAGAGATAATCCGCACGTGATGGAATTCATTCTG	3660 a.u.
GCGGTGAAAAGTGCAAATGTGATGACAGCACCGGAA	66.3 a.u.
GAAGATGACTGCTTCCTCGTGTTGATCCATTATTTT	84.4 a.u.
CTAACGAAGGTTTGCTTCGTGGGTGACAAGCCAAGT	71 a.u.
CGTCGTCTGGGACGTAGTGTGACAGGATGTCTTCCA	73.6 a.u.
CCCAGCCCTGGGAGCCACGTGATCCCGGTCCTGGTT	4170 a.u.
TAATCAATGGGTTTGCATGTGGTAATCAATTGATAA	115 a.u.
CCAACAAACGGAACACACGTGCGGAAGTTTCAAAGG	1150 a.u.

Sample 4
SMILES: N#Cc1c(NC(=O)c2cccc3ccccc23)sc2c1CCCC2
Read-out: enzyme activity
Mode: inhibitor
Tested at: 0.5 µM
Baseline: control
target	remaining activity [%]
Casein kinase I isoform gamma-2 (CSNK1G2, Homo sapiens, UniProt P78368)	103
Serine/threonine-protein kinase Nek1 (NEK1, Homo sapiens, UniProt Q96PY6)	93.4
Macrophage-stimulating protein receptor (MST1R, Homo sapiens, UniProt Q04912)	92.5
Tyrosine-protein kinase FRK (FRK, Homo sapiens, UniProt P42685)	104
Mitogen-activated protein kinase 3 (MAPK3, Homo sapiens, UniProt P27361)	97.1
Mitogen-activated protein kinase kinase kinase 14 (MAP3K14, Homo sapiens, UniProt Q99558)	111
Serine/threonine-protein kinase TBK1 (TBK1, Homo sapiens, UniProt Q9UHD2)	94
Serine/threonine-protein kinase A-Raf (ARAF, Homo sapiens, UniProt P10398)	104
Fibroblast growth factor receptor 1 (FGFR1, Homo sapiens, UniProt P11362)	105
Dual specificity mitogen-activated protein kinase kinase 2 (MAP2K2, Homo sapiens, UniProt P36507)	106

Excerpt of the above (sample 2):
target	remaining binding
Dual specificity tyrosine-phosphorylation-regulated kinase 1A (DYRK1A, Homo sapiens, UniProt Q13627)	83%
Receptor tyrosine-protein kinase erbB-3 (ERBB3, Homo sapiens, UniProt P21860)	77%
Tyrosine-protein kinase ABL1, non-phosphorylated (ABL1, Homo sapiens, UniProt P00519)	78%
